Measurements from different studies.
Numbered parts are unrelated; each lists some results of a single study.

Sample 1 — technique: RNA Bind-n-Seq; molecule type: RNA; sample: in vitro; tested at: 200 nM; setting: whole 134-nt RNA, ends assumed; added: 150 mM LiCl; reference: input library; direction: higher = stronger binding; each molecule: 7-deaza-guanosine replaces G
Target: Fragile X messenger ribonucleoprotein 1, C-terminal low-complexity region (Fmr1, Mus musculus, UniProt P35922)
Shared flanks, not repeated: GGGAGUUCUACAGUCCGACGAUC … UGGAAUUCUCGGGUGUCAAGG
| Sequence | log2 enrichment |
| --- | --- |
| UGGGAGGUGGAUUUUGUUUAUUUUUUUAGCUCAUUUCCAGGGGUGGGAAAUUUUUUUUAAUAUGUGUCAUGAAUAAAGUUGUUUUUGAAA | 0.347 |
| UGGCCCUGGUGGCAUGCGGGGAGGAAGAGGUGGCCUCAUGGAUCGUGGUGGUCCCGGUGGAAUGUCCAGAGGUGGCCGUGGUGGAGACAG | -0.802 |
| UUUCAAAGCCAAAGGGCCUUGUGACGCCCCUCUUGCCCACCUCCCUCCACACCGUGUCCUCCCCUAUAUGACAAUCAAUGUGACCUCUCU | 1.76 |
| UGGCCCUGGUGGCAUGCGGGGAGGAAGAGGUGGCCUCAUGGAUCGUGGUGGUCCCGGUGGAAUGUUCAGAGGUGGCCUUGGUGGAGACAG | 0.538 |
| GCAGGAAGUAAAAACAAAUGGAAAUGCUUCGGAUAGUGGCAGGGGUGGGGGUUGCUAAGGAAAGGGUGGGAUGGGAGUGGGUCAAGAGUU | 1.48 |
| UGGCCCUGGUGGCAUGCGGGGAGGAAGAGGUGGCCUCAUGGAUCGUGGUGGUCCCGGUGGAAUGUUAAGAGGUGGCCGUGGUGGAGACAG | -0.112 |
| CUCAAGUCCUGUGCUACACAUCGUAUGUACCGAAUCGGAGGAAAAAGGUUUGGAAAGUAUUAUGUUACGCCGUUCGGAUCUGCACUUCCA | -1.11 |
| UCAAGUCCUGUGCUACACAUCGUAUGUACCGAAUCGGGUUGGGUUGGGGUUGGGGAAAGUAUUAUGUUACGCCGUUCGGAUCUGCACUUC | -0.738 |
| UGGAGCUGAAGAGCCAAGAGGCUCCGAGUCUGCAGCAGCAGCCAGACCAGUACCUGGAGCCCCAGUCCCACAAGGAGCUUGGAUGUGCGG | -1.64 |
| AGUCCUGUGCUACACAUCGUAUGUACCGAAUCGGGAAAGGGAAAGGGAAAAAAAGGGAAAGUAUUAUGUUACGCCGUUCGGAUCUGCACU | -0.48 |
| AGUCCUGUGCUACACAUCGUAUGUACCGAAUCAAACCCCCAAAUUUAAACCCCCAAAAAAGUAUUAUGUUACGCCGUUCGGAUCUGCACU | 1.03 |

Sample 2 — technique: protein binding microarray; molecule type: double-stranded DNA, one strand shown; sample: in vitro; tested at: not given; reference: not given; direction: higher = stronger binding
Target: Histone acetyltransferase KAT6A, both winged helices, GST fusion (KAT6A, Homo sapiens, UniProt Q92794, residues 1-181)
Setting: 8-mer, flanks averaged, mean of 2 arrays, mostly near background
Residues (chain): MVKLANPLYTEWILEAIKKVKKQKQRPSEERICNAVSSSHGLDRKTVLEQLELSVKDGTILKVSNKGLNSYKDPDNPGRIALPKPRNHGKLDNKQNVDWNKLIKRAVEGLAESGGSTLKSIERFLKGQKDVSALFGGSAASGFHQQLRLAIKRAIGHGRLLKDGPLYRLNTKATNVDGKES
| Sequence | E-score |
| --- | --- |
| GCGCTATA | 0.297 |
| TATATCGA | 0.107 |
| CTGATGAA | -0.0939 |
| GCGAGCAC | 0.0649 |
| CATTTCCC | 0.0761 |
| TGCTCACA | -0.146 |
| ACCTTTCA | -0.0931 |
| CGTGGTTA | 0.0067 |
| AGGAGATG | -0.137 |
| CCGTAAAA | 0.217 |
| AGTATTCG | -0.0389 |
| GTTCAACA | -0.0517 |
| GGCTGCCC | 0.0647 |
| AAGCGAAG | 0.114 |
| GACTACGC | 0.147 |
| ACGGGCCG | 0.274 |
| ATTGTGGG | -0.209 |
| AATCCTTC | -0.0706 |
| TATCGCAA | -0.0623 |
| CCCATGTC | -0.0944 |
| ATTGCTAG | -0.111 |
| ACTCCCTG | -0.314 |
| GATTGGAA | -0.103 |

Sample 3 — technique: RNA Bind-n-Seq; molecule type: RNA; sample: in vitro; tested at: not given; setting: RNA with constant flanks, ends assumed; reference: input RNA pool; direction: higher = stronger binding
Target: RING finger protein unkempt homolog, zinc fingers 1-6, GST-SBP tag (UNK, Homo sapiens, UniProt Q9C0B0, residues 30-357)
Shared flanks, not repeated: GGGAGUUCUACAGUCCGACGAUC … CAACAGAGGAUUGAGCAUCA
Construct (chain): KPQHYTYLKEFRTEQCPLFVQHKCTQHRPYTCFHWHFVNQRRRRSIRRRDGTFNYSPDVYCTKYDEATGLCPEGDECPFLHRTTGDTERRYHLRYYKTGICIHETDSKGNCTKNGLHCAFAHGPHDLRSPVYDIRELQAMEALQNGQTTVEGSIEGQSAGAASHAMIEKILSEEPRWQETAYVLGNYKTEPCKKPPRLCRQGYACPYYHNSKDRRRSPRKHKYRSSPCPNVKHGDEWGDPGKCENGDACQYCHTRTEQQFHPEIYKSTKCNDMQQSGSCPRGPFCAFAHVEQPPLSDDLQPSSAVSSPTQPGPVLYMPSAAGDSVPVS
| Sequence | bound/input enrichment |
| --- | --- |
| UUAGUACCAAGAUGUUCUUUUUUCAUUAUCAGUCUUUCAGAUGUCUAUUUUCUUGCUGAACCGCAGAGGACUUUAUUUCCACCUCCCUAUAAAGUGUGAGCACUGUGUUUCAGCGAGCUG | 1.65 ratio |
| GAAAAAGAGGAGGAAGUACAUGCUCGUUUACUUCAUUGUGUAAGCAAACAGAAAAUUUUACUCCGCCAGGCUAGAAGAACUCAGAAACAUUUGCAGAUGCUCCUGGCAAAGCAUGUUGUU | 0.124 ratio |
| GUAUGGUUUUUGCUUACCCUUUCAAGUCACAGGUAAAUGUUUCAUAAGGAAAUCACAGUUUUCCGAUUCCCUGUUAUUGCUAGUGUGGGACCUGUAGCUGUGGGGUCUGACAUAUUUAUU | 0.551 ratio |
| UCUCUUUAUCCUCAGUUUAUGUUUCAUUUAAGAAGAUCUCCUUUCUUGCAAGUUUUUAACAACCGUCCUGAUGAGAGUUCAUACUAUCGUCACCAUUUCAUGCGUCAGGAUCUGACCCAG | 0.397 ratio |
| GGGCUGUGUAGAGUAGGGCCCUGUUCUCCUUAGGAUGUUGCUUCUUGAUUUUUUUUUUUUUUCCGGGGUGGGUCAGGGUUGUGACACACCAGCCCAGGUGAGAGCUGCUGCGGGUCACCU | 5.95 ratio |
| GUCUACCUUAACCUGGUGCUGGACUAUGUUCCGGAGACAGUGUACAGAGUCGCCAGACACUACCGUCGAGCCAAGCAGACACUCCCUGUGAUCUAUGUCAAGUUGUAUAUGUAUCAGCUG | 0.0448 ratio |
| CUGAAGCCCAUGUUGCAGCGGGACUUUAUUACCGCUUUACCAGAGCAAGGCUUAGAUCACACCGCAGAAAACAUUCUUUCGUACCUGGAUGCCAGGUCUCUGUGUGCAGCAGAGCUGGUA | 0.11 ratio |
| AGACUUUCCAGCUCAGAGAGUGAAGAGAGCUAUUUGUCCAAGAACUCUGAAGAUGAUGAGCCCGCUAAAGAAUCAAAGCGGUCAGUUCGAAAGCGGGGCCGAAGCACAGACGAGUAUUCA | 0.184 ratio |
| UUCUGUCUGUAGGUAGGUUGUUGAUUCUAAGUAGCUUUCGUUUGUUCGUCUGUCUUAUGUCUCCGACCAGCUUUGUGGUGUUCUUGGCUCAUCUCAUAAUACUGUUGUUCAGUUUAUAUC | 0.44 ratio |
| AUUUGGGGCAGUACCAGUCCAUACCAGCUGCGAUUUGUGAGUGGACCUGUGGUAAGAAGAACCGAAAAGGCUCUCAGAGAUAAGGUUUUUUACAUGUGUAACAAUCCCAAGAUUUCCUAG | 0.293 ratio |
| CUCCUGUCUCGAUUUACUCGAAAUGAGUUUAAUCUGGAAAGCAAGAGCACCAUUGGAGCCGAGUUUGCAACAAGAAGCAUCCAGGUUGAUGGAAAAACAAUAAAGGCACAGAUAUGGGAC | 0.225 ratio |

Sample 4 — technique: protein-binding microarray; molecule type: double-stranded DNA, one strand shown; sample: in vitro; tested at: 940 nM top; setting: 60-bp whole probe; added: salmon DNA 0.4 mg/ml; reference: random background probes; direction: higher = stronger binding; shared flanks, not repeated: GCCTAGCAC … GTCTTGATTCGCTTGACGCTGCTG
Target: Interferon regulatory factor 5, full length, phosphomimetic (IRF5, Homo sapiens, UniProt Q13568-2, residues 1-514, S451D/S453D/S456D/S462D)
| Sequence | fitted relative affinity [z-score] |
| --- | --- |
| GACGGTTCCGGTTTCGAGACGTGCTAG | 5.12 |
| GACGGACTGCTTTTCATGACGTGCTAG | -0.0657 |
| TCTTTTTCCTAATTGAACCCGTGCTAG | 1.23 |
| TTAGATTGCAGTTTCGATTAGTGCTAG | 7.18 |
| TCACCACTTTCTTTTGCACTGTGCTAG | 2.06 |
| GAAGGACTGGGTCTCGGGACGTGCTAG | -0.323 |
| GACGGTTTCCGGTTTCGGGACGTGCTA | 4.13 |
| TTAGGTCTCCTACTGCTCTAGTGCTAG | 0.0213 |
| CTTAGTATTTTTTTCCAGAGGTGCTAG | 1.17 |
| TCATTTCTCTGCTCTTTTACTGTGCTA | 1.99 |
| GACGATATCAGGCTGGAGACGTGCTAG | -0.682 |
| TGCTGGTTTTGTGGTCTAATGTGCTAG | 0.371 |
| TTTTGCTTTCATTTATTTACGTGCTAG | 3.53 |
| TTAGGTATCCTTTACCTTTAGTGCTAG | 0.367 |
| TTAGAACTGAGTATCGATTGGTGCTAG | 4.31 |
| TCAGATATCGGGTTTCGATTAGTGCTA | 5.57 |
| GACGGTTTCGGTATGGGGACGTGCTAG | 12.9 |
| TTAAGACTGGACTATCGGTTAGTGCTA | 0.205 |
| GAAGGACTGGACTATCGGGACGTGCTA | -0.777 |
| TTAGATCTCAGGTTCGATTAGTGCTAG | 0.237 |
| GACGGTCTCTGTCTCGGGACGTGCTAG | 1.25 |

Sample 5 — technique: aptamer microarray, sandwich; molecule type: DNA with 2'F-ANA; sample: in vitro; tested at: 200 nM; added: Cy3 exosite-II aptamer, 400 nM; direction: higher = stronger binding; sequence: GGTTGGTGTGGTTGG
Target: Prothrombin, mature alpha-thrombin (F2, Homo sapiens, UniProt P00734)
Setting: whole 15-mer aptamer, many near background
| Modification | mean fluorescence intensity [a.u.] |
| --- | --- |
| 2'F-ANA at 3 4 5 7 9 11 | 103 |
| 2'F-ANA at 1 7 10 12 13 | 67.4 |
| 2'F-ANA at 1 9 10 12 | 70.6 |
| 2'F-ANA at 4 6 13 14 15 | 75.3 |
| 2'F-ANA at 2 4 5 9 12 | 150 |
| 2'F-ANA at 2 4 6 7 8 10 12 15 | 125 |
| 2'F-ANA at 2 4 6 8 11 | 259 |
| 2'F-ANA at 2 3 5 6 7 8 10 11 13 14 | 58.4 |
| 2'F-ANA at 2 4 5 7 9 11 12 13 14 15 | 74.2 |
| 2'F-ANA at 2 3 6 7 8 11 12 14 15 | 425 |
| 2'F-ANA at 1 2 3 9 12 14 15 | 105 |
| 2'F-ANA at 1 3 7 10 12 13 15 | 119 |
| 2'F-ANA at 1 5 8 9 10 12 15 | 51.7 |
| 2'F-ANA at 4 5 7 8 9 10 11 12 13 14 15 | 59.3 |
| 2'F-ANA at 2 3 4 7 8 11 12 13 14 15 | 333 |
| 2'F-ANA at 2 3 4 6 7 8 9 11 12 13 14 | 249 |
| 2'F-ANA at 1 2 3 5 7 8 12 13 14 15 | 59.7 |
| 2'F-ANA at 2 3 6 8 10 11 | 313 |
| 2'F-ANA at 2 3 5 6 7 11 12 13 | 104 |
| 2'F-ANA at 1 4 6 9 10 14 | 166 |
| 2'F-ANA at 1 2 3 4 6 7 9 11 13 | 90.7 |
| 2'F-ANA at 2 6 11 | 349 |
| 2'F-ANA at 1 2 3 4 5 8 9 11 14 | 50.6 |
| 2'F-ANA at 1 2 3 6 7 13 15 | 137 |
| 2'F-ANA at 1 3 5 8 9 12 13 15 | 92.9 |

Some of these lines once more (sample 2):
| Sequence | E-score |
| --- | --- |
| ACGGGCCG | 0.274 |
| CCGTAAAA | 0.217 |
| GCGCTATA | 0.297 |
| CTGATGAA | -0.0939 |
| ACTCCCTG | -0.314 |
| CATTTCCC | 0.0761 |
| CGTGGTTA | 0.0067 |
| TATATCGA | 0.107 |
| GATTGGAA | -0.103 |
| GGCTGCCC | 0.0647 |
| ACCTTTCA | -0.0931 |
| AATCCTTC | -0.0706 |
